Experimental data gathered from unrelated publications.
A part holds a random share of what one study measured. Positions count from the first letter of the parent shown.
Sequence of UniProt O23661 (whole entry, looked up): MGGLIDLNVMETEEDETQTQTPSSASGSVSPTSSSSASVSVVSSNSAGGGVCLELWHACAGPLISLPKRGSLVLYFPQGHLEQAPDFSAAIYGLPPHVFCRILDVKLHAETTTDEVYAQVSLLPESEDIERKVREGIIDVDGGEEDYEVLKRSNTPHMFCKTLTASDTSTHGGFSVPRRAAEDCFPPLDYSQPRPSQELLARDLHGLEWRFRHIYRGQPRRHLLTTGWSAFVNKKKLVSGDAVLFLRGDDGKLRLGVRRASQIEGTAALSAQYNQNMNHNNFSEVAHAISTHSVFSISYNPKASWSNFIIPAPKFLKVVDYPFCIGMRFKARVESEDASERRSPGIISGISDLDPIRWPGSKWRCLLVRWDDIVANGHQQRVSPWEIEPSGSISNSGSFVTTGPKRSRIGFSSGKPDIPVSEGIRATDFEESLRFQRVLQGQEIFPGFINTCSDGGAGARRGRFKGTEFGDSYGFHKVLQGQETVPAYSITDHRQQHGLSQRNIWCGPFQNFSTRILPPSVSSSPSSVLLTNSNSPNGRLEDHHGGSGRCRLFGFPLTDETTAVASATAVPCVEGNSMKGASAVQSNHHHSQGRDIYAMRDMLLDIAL

Series 1 — technique: RNA Bind-n-Seq; form: RNA; matrix: in vitro; tested at: 20 nM; notes: 6-mer, flanks averaged, single round; together with: 150 mM LiCl; baseline: input library; reading: higher = stronger binding
Target: TAR DNA-binding protein 43, full length, His tag (TARDBP, Homo sapiens, UniProt Q13148, residues 1-414)
Oligonucleotide | 6-mer enrichment (R)
GCAAAG | 0.91
GAAUCC | 0.836
GACCAA | 0.843
CAACCG | 0.79
GCGAUA | 0.896
GGAACA | 0.888
AAAAGU | 0.896
CUCCGG | 0.885

Series 2 — target: CCNB3, cyclin fold, Cln2 fusion (human); technique: yeast growth competition, sequencing; matrix: yeast; notes: strong parent motif; baseline: not given; reading: higher = stronger binding
Starting sequence: viral docking peptide; CKVKRKLFGSENI; partner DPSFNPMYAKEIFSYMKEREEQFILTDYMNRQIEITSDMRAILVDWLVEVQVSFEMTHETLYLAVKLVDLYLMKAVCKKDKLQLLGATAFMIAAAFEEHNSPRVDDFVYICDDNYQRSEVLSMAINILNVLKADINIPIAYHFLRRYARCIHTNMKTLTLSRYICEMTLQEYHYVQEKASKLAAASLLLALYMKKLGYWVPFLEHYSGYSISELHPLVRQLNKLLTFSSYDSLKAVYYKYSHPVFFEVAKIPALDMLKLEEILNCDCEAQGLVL
Substitution | normalised enrichment score
CKVKRKLFGAENI [S10A] | 0.868
CKVKRKLFGSEAI [N12A] | 0.975
CKVKRKLFGSANI [E11A] | 0.817
CKVKRKLAGSENI [F8A] | -0.137

Series 3 — effect on: binding; technique: phage display NGS; form: peptide; tested at: concentration not given; baseline: input library
Target: UDP-N-acetylglucosamine--peptide N-acetylglucosaminyltransferase 110 kDa subunit (OGT, Homo sapiens, UniProt O15294)
Sequence of UniProt O15294 (whole entry, looked up): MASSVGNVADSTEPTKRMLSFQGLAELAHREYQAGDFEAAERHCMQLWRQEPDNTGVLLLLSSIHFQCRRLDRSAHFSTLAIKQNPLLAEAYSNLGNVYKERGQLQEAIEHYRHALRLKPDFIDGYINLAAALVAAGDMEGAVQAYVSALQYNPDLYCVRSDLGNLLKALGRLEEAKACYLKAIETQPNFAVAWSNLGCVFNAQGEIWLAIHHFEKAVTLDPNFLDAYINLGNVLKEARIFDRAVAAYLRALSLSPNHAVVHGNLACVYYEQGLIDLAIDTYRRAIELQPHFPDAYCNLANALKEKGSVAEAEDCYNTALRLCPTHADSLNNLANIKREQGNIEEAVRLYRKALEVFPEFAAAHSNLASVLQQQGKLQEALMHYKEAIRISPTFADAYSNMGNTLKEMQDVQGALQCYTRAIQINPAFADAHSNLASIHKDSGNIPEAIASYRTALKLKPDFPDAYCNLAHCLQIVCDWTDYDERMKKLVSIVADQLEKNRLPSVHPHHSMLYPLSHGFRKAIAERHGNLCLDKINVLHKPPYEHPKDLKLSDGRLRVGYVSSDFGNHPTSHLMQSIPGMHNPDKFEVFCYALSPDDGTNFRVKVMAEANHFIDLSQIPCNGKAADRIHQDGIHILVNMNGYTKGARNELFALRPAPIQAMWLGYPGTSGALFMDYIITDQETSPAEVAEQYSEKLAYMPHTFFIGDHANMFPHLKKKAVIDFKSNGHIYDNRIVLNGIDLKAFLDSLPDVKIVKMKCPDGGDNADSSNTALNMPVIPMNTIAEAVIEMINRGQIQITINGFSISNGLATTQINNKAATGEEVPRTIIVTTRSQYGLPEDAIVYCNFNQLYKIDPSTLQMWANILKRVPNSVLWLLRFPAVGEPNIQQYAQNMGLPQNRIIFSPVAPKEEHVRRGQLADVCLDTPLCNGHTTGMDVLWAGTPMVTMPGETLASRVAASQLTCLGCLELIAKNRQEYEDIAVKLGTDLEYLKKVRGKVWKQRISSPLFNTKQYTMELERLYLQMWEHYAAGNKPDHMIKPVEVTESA
Sequence | enrichment fold change
HIHLHAQENPKVPYH | 4.6
HFYTPHFHYEHARFQ | 2.66
TLSPQHNHEHNQPHH | 7.02
HVSHTHPYQSQDHQH | 4.15
QEGTMPIYQIIMKYD | 3.37

Series 4 — technique: RNA Bind-n-Seq; form: RNA; matrix: in vitro; tested at: 200 nM; notes: whole 134-nt RNA, ends assumed; together with: 150 mM KCl; baseline: input library; reading: higher = stronger binding
Target: Ras GTPase-activating protein-binding protein 1, full length (G3BP1, Homo sapiens, UniProt Q13283)
Sequence of UniProt Q13283 (whole entry, looked up): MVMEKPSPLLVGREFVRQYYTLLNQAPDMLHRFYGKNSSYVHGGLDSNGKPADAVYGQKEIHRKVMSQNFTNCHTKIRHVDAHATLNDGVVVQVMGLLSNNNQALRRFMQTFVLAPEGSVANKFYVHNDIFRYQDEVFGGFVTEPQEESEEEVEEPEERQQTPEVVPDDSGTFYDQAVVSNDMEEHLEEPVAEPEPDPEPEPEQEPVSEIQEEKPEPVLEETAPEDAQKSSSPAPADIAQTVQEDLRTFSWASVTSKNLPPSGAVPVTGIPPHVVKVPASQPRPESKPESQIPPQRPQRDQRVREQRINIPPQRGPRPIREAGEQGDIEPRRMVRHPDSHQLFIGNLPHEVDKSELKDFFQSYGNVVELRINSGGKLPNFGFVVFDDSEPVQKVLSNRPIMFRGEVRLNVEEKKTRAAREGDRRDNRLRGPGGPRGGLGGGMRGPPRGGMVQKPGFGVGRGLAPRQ
Shared flanks, not repeated: GGGAGUUCUACAGUCCGACGAUC … UGGAAUUCUCGGGUGUCAAGG
Oligonucleotide | log2 enrichment
UUCCAUUGUGAACGUGCCUGGUGAGUCUACUCUUCGCCGAGAUUUCCUGAGACUGCAGCAGGAGAACAAGGAACGUUCCGAGGCUCUUCG | -1.88
CAAGUCCUGUGCUACACAUCGUAUGUACCGAAUCGGGUUUGGGGUUUGGUUUGGGAAAGUAUUAUGUUACGCCGUUCGGAUCUGCACUUC | -0.211
UAACUUUAGAGGAGGAUCUGAGGGAUAUGGCAGUGGACGUGGAUUUGGGGAUGGCUAUAAUGGGUAUGGAGGAGGACCUGGAGGUGGCAA | 0.477
CUGUGCUACACAUCGUAUGUACCGAAUCGGGGAAAAAAAGGGGUUUUUUUGGGGUUUGGGGAAAGUAUUAUGUUACGCCGUUCGGAUCUG | -0.157
GUCCUGUGCUACACAUCGUAUGUACCGAAUCGGGAAAAAGGGGAAAAAGGGAAAAAGGGAAAGUAUUAUGUUACGCCGUUCGGAUCUGCA | -0.259
CCUGUGCUACACAUCGUAUGUACCGAAUCGGGGUUUUUUGGGGUUUUUUGGGUUUUUUGGAAAGUAUUAUGUUACGCCGUUCGGAUCUGC | -0.392
GUCCUGUGCUACACAUCGUAUGUACCGAAUCGGAAAAAGGUUUUUUUGGAAAAAAAGGAAAGUAUUAUGUUACGCCGUUCGGAUCUGCAC | -1.39
UCAAGUCCUGUGCUACACAUCGUAUGUACCGAAUCGGGGCCGGGCCGGGGCCGGAAAGUAUUAUGUUACGCCGUUCGGAUCUGCACUUCC | -0.475

Series 5 — target: tungstate, free oxyanion; technique: microfluidic competitive inhibition; matrix: in vitro, cell-free expressed; tested at: not given; reading: lower = stronger binding
Notes: derived from inhibition constants, unchanged parent 2230 nM
Starting sequence: PafA, mature enzyme, eGFP fusion (Elizabethkingia meningoseptica, UniProt Q9KJX5); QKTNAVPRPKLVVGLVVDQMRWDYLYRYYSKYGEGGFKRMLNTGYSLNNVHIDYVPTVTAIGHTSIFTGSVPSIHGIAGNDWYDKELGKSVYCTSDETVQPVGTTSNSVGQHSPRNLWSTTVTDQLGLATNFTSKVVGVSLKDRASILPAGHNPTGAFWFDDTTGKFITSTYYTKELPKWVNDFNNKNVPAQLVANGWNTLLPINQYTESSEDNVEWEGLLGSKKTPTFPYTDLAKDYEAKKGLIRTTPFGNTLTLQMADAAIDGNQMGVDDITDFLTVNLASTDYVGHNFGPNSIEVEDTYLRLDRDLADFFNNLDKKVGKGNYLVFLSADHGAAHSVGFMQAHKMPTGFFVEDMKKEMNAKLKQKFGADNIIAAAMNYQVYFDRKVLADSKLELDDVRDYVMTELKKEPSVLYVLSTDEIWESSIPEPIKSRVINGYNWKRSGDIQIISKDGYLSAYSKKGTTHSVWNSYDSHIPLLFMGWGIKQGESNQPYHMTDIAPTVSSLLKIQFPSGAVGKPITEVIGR
Substitution | oxyanion analog dissociation constant
Q366V | 2.3 µM
H475V | 3.2 µM
S90V | 4.97 µM
H63G | 10.6 µM
G69A | 2.43 µM
N199V | 2.11 µM
F313V | 1.93 µM
N440V | 2.62 µM
W469V | 1.4 µM
G88V | 2.25 µM
S426G | 2.02 µM
I147V | 2.35 µM
K365G | 2.56 µM
T57G | 1.04 µM
A191V | 2.19 µM
A515V | 2.53 µM
L141V | 1.86 µM
I273V | 2.59 µM
I485V | 2.73 µM
I61G | 1.61 µM
E421G | 1.97 µM
N324G | 1.94 µM
L126V | 1.81 µM
Y26V | 2.09 µM
L394V | 2.09 µM

Other studies, line by line
B1: IAA33 (Arabidopsis thaliana, UniProt Q9FKM7); chain MNSFEPQSQDSLQRRFHQDNSTTQQPRDTTTPFIPKPASKNHNNSNSSSGAAGRSFQGFGLNVEDDLVSSVVPPVTVVLEGRSICQRISLDKHGSYQSLASALRQMFVDGADSTDDLDLSNAIPGHLIAYEDMENDLLLAGDLTWKDFVRVAKRIRILPVKGNTRQVKRNE
Substance | partner | assay | system | conditions | how to read | quantity | result
TCP1 (Homo sapiens, UniProt P17987) | CCT8 (Homo sapiens, UniProt P50990) | cross-linking MS | cells | together with: BSPNO | – | cross-linked residues | K494 to K466
B1 (IAA33) | ETT (Arabidopsis thaliana, UniProt O23661) | two-hybrid | – | – | baseline: out of 4 tests, higher = firmer interaction | positive tests | 1

For quick reference, copied from above (series 5):
Substitution | oxyanion analog dissociation constant
S90V | 4.97 µM
L394V | 2.09 µM
N324G | 1.94 µM
I273V | 2.59 µM
Q366V | 2.3 µM
